Assay results of several laboratories.
Each numbered part is a random draw from the data of one study; scales do not carry over between parts.
Sequence of UniProt P51955 (whole entry, looked up): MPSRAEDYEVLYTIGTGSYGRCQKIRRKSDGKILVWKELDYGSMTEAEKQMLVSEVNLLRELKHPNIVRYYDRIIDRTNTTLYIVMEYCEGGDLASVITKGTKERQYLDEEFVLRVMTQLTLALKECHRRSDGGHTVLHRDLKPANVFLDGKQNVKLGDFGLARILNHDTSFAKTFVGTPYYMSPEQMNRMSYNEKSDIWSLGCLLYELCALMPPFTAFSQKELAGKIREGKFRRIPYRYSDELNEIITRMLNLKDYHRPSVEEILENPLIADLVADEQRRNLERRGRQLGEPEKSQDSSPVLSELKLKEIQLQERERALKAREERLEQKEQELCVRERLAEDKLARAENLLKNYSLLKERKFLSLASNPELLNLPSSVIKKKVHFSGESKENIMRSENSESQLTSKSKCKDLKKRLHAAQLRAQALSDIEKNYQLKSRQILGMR

Sample 1 — method: universal PBM; molecule type: double-stranded DNA, one strand shown; sample: in vitro; concentration: 600 nM; reading: higher = stronger binding
Target: Sal-like protein 4, full length isoform A (SALL4, Homo sapiens, UniProt Q9UJQ4, residues 1-1053)
Sequence of UniProt Q9UJQ4 (whole entry, looked up): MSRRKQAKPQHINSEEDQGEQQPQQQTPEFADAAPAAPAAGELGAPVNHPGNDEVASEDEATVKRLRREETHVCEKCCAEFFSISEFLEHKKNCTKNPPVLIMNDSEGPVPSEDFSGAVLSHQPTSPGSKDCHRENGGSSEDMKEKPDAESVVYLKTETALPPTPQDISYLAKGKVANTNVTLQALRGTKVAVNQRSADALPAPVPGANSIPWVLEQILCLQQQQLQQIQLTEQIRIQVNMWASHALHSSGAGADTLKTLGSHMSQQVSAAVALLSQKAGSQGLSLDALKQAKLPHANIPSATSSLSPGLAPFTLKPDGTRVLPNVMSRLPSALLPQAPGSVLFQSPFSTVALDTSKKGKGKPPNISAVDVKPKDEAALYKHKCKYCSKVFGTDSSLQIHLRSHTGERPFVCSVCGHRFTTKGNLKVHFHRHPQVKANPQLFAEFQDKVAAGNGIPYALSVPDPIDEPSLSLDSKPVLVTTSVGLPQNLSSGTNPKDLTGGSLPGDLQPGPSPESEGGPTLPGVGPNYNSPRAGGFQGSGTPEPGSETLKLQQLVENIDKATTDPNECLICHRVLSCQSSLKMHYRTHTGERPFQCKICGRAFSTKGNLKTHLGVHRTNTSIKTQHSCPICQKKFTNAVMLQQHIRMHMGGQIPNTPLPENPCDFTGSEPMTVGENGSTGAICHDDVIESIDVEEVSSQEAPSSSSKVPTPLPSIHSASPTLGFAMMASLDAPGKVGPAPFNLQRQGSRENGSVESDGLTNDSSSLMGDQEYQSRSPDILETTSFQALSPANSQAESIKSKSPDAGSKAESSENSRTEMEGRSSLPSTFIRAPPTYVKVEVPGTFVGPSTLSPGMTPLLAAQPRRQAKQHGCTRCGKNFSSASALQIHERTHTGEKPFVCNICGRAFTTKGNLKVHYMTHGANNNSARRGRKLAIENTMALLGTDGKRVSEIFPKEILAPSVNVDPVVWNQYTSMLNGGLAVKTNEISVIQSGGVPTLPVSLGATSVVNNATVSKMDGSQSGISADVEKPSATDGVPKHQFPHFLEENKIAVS
Setting: 8-mer, flanks averaged, mean of replicates
| Oligonucleotide | E-score |
| --- | --- |
| AATCTGGT | 0.0179 |
| CATTTTCA | 0.263 |
| TAGGAACA | 0.0727 |
| CGCGTCGA | -0.211 |
| TCCAGGCA | 0.0435 |
| CTTCTTGC | -0.0624 |
| GTACTGAA | 0.188 |
| AACTCACC | -0.0891 |

Sample 2 — method: RNAcompete; molecule type: RNA; sample: in vitro; concentration: 20 nM; setting: 7-mer, probes averaged, single round; baseline: mean of 7-mers; reading: higher = stronger binding
Target: PABPC1L2, full length, GST fusion (mouse, UniProt A0ABA7IW68)
Residues (chain): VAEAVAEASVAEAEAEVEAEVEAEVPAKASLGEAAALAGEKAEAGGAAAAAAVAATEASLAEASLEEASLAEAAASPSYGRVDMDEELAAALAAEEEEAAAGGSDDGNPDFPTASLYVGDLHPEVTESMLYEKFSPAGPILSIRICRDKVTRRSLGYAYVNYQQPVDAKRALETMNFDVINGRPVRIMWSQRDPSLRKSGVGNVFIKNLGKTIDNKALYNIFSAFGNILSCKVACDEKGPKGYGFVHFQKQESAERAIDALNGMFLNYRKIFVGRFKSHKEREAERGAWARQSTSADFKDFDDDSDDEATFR
| Oligonucleotide | 7-mer Z-score |
| --- | --- |
| CGCUGCA | -0.275 |
| GUAUUCC | -0.331 |
| UUAGUAC | -0.171 |
| AAACGGA | 1.13 |
| GGAAAAA | 12 |
| AAGGCUU | 0.1 |
| GGAGAUU | 0.0442 |
| AACACGA | 0.726 |

Single results of other studies
NUAK1: NUAK family SNF1-like kinase 1 (NUAK1, Homo sapiens, UniProt O60285)
Sequence of UniProt O60285 (whole entry, looked up): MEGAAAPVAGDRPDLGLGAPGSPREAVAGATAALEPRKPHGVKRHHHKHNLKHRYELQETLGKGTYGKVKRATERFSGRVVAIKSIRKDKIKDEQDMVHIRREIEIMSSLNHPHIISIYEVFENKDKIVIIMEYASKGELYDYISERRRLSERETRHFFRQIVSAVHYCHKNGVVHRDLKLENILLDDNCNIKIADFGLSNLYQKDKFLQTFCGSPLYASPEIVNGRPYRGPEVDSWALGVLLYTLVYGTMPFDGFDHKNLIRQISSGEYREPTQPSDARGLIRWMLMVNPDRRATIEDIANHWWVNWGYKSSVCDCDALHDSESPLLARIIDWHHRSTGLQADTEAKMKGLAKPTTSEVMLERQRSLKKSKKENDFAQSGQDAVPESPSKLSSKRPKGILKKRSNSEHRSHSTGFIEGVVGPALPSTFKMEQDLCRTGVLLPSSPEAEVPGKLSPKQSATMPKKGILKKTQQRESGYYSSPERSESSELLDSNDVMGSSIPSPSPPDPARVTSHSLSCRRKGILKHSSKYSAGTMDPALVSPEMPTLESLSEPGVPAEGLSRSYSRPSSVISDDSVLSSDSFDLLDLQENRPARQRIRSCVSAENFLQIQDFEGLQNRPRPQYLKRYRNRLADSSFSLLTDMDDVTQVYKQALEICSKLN
| Structure (SMILES) | target | assay | setting | scale | measurement | result |
| --- | --- | --- | --- | --- | --- | --- |
| CCN1/C(=C/C(C)=O)Sc2ccc(OC)cc21 | NUAK1 | enzyme activity, inhibitor | 0.5 µM | baseline: control | remaining activity | 93.4% |
| CN(C)C(=O)Cn1cc(-c2nc([C@@](C)(c3ccc(-c4cnc(N)nc4)cc3)C3CC3)no2)cn1 | Serine/threonine-protein kinase Nek2 (NEK2, Homo sapiens, UniProt P51955) | cell-free assay, competition with immobilised ligand | 1 µM | – | remaining binding | 97% |
| COc1cc2ncnc(Nc3ccc(OCc4ccccc4)cc3)c2cc1OC | NUAK1 | enzyme activity, inhibitor | 0.5 µM | baseline: control | remaining activity | 94.8% |

Excerpt of the above (sample 1):
| Oligonucleotide | E-score |
| --- | --- |
| CGCGTCGA | -0.211 |
| TCCAGGCA | 0.0435 |
